Published values gathered from unrelated publications.
A part holds a random share of what one study measured. Values joined by “and” are separate records of one study, mostly repeats; a detail may differ.
Chain of UniProt P51451 (whole entry, looked up): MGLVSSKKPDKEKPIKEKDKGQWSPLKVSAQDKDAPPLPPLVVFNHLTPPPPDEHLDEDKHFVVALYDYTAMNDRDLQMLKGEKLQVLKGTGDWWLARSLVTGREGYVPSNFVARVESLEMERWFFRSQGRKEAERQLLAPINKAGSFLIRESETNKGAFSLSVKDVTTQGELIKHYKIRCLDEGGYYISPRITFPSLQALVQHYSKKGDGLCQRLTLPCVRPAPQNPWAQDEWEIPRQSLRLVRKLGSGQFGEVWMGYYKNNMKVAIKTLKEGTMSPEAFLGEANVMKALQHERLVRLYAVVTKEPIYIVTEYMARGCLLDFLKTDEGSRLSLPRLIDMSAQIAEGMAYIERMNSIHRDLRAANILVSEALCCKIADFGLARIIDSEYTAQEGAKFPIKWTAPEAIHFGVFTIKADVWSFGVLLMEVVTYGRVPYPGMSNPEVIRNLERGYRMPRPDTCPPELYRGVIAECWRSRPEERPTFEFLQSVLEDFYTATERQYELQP
Chain of UniProt P00519 (whole entry, unmodified, looked up): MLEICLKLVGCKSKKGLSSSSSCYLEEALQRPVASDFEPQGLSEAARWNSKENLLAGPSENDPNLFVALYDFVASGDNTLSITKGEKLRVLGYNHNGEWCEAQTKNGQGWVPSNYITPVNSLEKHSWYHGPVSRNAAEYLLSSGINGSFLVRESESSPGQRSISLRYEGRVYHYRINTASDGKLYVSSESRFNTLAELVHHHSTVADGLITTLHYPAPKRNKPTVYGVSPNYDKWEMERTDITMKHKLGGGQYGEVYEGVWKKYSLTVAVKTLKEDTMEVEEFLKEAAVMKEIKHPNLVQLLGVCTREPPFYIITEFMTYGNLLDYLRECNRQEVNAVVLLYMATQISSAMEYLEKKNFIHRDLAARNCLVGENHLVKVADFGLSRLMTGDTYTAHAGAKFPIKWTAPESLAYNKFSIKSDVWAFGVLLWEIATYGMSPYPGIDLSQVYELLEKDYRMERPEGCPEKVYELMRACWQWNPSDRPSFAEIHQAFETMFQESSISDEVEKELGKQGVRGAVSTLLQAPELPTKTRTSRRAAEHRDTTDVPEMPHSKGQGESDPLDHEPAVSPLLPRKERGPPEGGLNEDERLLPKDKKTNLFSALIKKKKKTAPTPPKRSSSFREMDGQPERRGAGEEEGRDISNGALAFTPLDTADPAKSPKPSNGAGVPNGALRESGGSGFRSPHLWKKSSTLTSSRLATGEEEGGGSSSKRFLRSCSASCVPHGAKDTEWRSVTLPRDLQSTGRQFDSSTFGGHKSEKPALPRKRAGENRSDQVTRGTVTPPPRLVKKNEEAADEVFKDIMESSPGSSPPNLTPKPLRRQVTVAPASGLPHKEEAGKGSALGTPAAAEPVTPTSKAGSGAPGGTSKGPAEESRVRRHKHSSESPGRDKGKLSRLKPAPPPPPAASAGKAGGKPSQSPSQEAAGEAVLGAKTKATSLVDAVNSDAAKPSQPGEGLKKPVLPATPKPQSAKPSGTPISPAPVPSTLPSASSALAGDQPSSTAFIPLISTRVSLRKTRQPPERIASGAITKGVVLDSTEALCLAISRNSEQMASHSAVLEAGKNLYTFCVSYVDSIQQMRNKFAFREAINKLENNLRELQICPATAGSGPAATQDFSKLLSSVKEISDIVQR
Chain of UniProt P42679 (whole entry, looked up): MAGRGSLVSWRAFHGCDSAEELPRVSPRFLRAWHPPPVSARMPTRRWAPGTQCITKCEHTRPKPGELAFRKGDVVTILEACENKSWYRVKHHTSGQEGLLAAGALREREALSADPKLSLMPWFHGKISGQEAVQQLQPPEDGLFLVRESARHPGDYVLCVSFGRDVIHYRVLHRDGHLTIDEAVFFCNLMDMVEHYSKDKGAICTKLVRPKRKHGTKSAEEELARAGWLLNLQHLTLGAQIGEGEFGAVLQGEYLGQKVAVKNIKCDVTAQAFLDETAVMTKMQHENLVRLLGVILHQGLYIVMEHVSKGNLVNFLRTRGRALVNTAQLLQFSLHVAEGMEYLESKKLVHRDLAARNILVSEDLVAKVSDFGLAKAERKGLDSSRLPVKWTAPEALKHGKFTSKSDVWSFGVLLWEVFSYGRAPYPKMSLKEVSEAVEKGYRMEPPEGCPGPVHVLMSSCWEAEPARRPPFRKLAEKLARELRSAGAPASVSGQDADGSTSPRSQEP
Chain of UniProt P11802 (whole entry, looked up): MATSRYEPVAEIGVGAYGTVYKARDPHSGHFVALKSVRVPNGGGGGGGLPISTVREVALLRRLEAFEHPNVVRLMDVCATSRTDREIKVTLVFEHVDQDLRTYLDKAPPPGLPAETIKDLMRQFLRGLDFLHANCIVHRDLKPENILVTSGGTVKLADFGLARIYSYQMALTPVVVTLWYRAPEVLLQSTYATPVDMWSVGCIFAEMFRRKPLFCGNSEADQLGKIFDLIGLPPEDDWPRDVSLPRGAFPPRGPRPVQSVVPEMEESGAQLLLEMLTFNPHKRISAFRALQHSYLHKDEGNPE
Chain of UniProt P42685 (whole entry, looked up): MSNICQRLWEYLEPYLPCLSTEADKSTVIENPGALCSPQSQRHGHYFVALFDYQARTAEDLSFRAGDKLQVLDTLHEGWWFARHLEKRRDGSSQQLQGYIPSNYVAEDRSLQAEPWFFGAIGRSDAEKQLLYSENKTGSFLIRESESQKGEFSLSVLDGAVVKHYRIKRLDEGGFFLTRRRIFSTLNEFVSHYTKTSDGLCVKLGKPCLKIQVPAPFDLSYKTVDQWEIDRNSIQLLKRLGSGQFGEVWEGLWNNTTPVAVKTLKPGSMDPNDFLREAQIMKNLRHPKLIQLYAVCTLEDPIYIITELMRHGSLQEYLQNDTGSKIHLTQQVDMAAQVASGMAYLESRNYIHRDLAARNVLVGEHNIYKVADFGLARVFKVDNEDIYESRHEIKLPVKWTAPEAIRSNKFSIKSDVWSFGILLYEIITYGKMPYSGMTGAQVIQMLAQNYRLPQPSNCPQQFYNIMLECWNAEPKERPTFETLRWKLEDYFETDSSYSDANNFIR
Chain of UniProt Q9H1R3 (whole entry, looked up): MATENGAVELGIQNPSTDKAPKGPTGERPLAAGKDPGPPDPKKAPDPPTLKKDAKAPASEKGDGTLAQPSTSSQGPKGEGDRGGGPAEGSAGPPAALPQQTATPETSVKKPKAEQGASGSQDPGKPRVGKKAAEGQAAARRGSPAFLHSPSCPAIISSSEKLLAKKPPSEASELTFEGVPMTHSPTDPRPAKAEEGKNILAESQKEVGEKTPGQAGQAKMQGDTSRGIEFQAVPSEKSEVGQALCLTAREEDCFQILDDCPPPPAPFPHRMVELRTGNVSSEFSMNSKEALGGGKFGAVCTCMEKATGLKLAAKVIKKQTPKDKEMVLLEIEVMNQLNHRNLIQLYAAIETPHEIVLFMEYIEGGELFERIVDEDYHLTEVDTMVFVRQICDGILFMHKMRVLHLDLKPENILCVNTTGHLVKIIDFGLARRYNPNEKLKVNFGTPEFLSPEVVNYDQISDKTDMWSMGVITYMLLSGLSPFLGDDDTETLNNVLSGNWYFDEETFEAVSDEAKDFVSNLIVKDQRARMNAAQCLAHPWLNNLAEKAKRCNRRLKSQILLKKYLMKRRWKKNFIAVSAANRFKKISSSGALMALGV
Chain of UniProt O15530 (whole entry, looked up): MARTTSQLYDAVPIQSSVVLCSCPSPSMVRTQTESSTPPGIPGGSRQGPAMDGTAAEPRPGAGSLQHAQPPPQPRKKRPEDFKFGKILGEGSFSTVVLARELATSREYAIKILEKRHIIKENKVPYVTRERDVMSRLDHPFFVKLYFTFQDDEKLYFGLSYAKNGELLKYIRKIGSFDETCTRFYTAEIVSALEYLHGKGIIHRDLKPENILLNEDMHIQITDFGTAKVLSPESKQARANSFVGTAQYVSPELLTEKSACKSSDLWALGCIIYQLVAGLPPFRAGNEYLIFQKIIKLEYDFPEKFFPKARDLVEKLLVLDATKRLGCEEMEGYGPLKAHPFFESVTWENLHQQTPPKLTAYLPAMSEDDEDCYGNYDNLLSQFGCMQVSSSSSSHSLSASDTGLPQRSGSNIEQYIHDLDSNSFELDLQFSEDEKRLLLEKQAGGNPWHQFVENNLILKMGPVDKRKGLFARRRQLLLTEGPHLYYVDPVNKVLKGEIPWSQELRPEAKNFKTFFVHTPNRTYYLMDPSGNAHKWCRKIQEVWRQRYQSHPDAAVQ
Chain of UniProt Q05655 (whole entry, looked up): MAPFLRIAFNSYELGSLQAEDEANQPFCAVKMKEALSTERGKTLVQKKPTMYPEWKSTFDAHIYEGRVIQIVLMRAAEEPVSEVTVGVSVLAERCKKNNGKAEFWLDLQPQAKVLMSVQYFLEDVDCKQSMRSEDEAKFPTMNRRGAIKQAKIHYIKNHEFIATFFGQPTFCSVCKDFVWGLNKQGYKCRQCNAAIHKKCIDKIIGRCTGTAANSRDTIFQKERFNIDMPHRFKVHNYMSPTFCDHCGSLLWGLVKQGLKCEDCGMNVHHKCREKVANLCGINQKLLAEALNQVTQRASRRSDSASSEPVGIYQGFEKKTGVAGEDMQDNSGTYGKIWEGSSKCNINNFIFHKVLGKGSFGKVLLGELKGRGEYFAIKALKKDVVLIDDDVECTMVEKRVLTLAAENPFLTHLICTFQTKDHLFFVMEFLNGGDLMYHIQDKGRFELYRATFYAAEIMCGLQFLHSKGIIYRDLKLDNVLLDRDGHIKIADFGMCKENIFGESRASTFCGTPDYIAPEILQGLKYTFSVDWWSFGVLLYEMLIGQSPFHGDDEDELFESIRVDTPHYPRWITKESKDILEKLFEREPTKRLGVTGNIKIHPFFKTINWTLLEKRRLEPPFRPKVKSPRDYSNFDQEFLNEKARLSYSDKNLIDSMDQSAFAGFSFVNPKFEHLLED

Block 1 — concentration: 1 µM
SMILES: CCCCN(CCCC)C(=O)CN1C[C@H](c2cc(OC)c3c(c2)OCO3)[C@@H](C(=O)O)[C@@H]1CC(C)(C)CCC
| target | read-out | method | remaining binding |
| --- | --- | --- | --- |
| NEK1 (Homo sapiens, UniProt Q96PY6) | cell-free assay | competition with immobilised ligand | 100% |
| MAP3K7 (Homo sapiens, UniProt O43318) | cell-free assay | competition with immobilised ligand | 85.5% |
| ACVR1 (Homo sapiens, UniProt Q04771) | cell-free assay | competition with immobilised ligand | 100% |
| FGFR2 (Homo sapiens, UniProt P21802) | cell-free assay | competition with immobilised ligand | 100% |
| CAMKK2 (Homo sapiens, UniProt Q96RR4) | cell-free assay | competition with immobilised ligand | 100% |
| Tyrosine-protein kinase ABL1, phosphorylated (ABL1, Homo sapiens, UniProt P00519, F317I) | binding | – | 72.5% |
| TLK2 (Homo sapiens, UniProt Q86UE8) | cell-free assay | competition with immobilised ligand | 100% |
| Cyclin-dependent kinase 4, with cyclin D3 (CDK4, Homo sapiens, UniProt P11802) | cell-free assay | competition with immobilised ligand | 100% |
| GRK1 (Homo sapiens, UniProt Q15835) | cell-free assay | competition with immobilised ligand | 71.9% |
| STK32A (Homo sapiens, UniProt Q8WU08) | cell-free assay | competition with immobilised ligand | 100% |
| EGFR (Homo sapiens, UniProt P00533, del752-759) | cell-free assay | competition with immobilised ligand | 85% |
| MAP2K3 (Homo sapiens, UniProt P46734) | cell-free assay | competition with immobilised ligand | 57.5% |
| BLK (Homo sapiens, UniProt P51451) | cell-free assay | competition with immobilised ligand | 95.8% |
| TEK (Homo sapiens, UniProt Q02763) | cell-free assay | competition with immobilised ligand | 90.5% |

Block 2 — Compound: CNc1cc2c(Nc3cccc(Br)c3)ncnc2cn1; read-out: enzyme activity; action: inhibitor; concentration: 0.5 µM; reference: control
| target | remaining activity |
| --- | --- |
| Cyclin-dependent kinase 4, with cyclin D3 (CDK4, Homo sapiens, UniProt P11802) | 120% |
| CAMK2B (Homo sapiens, UniProt Q13554) | 95.8% |
| ABL1 (Homo sapiens, UniProt P00519) | 89.8% |
| HIPK4 (Homo sapiens, UniProt Q8NE63) | 82.8% |
| BLK (Homo sapiens, UniProt P51451) | 103% |
| Cyclin-dependent kinase 1, with cyclin B (CDK1, Homo sapiens, UniProt P06493) | 104% |
| WNK3 (Homo sapiens, UniProt Q9BYP7) | 97.4% |
| SRMS (Homo sapiens, UniProt Q9H3Y6) | 100% |
| PDPK1 (Homo sapiens, UniProt O15530) | 97.7% |

Block 3 — cell line: mouse MPNST tumor cells; method: high-content immunofluorescence imaging; refers to: nuclear SOX9; concentration: 10 µM; time: 12 h; setting: mean of 2 replicates; reference: DMSO control; direction: higher = more nuclear SOX9
| SMILES | nuclear SOX9 intensity |
| --- | --- |
| O=C1c2ccccc2S(=O)(=O)N1CCCCN1CCN(c2ncccn2)CC1 | 102 % of DMSO |
| CC1(C)S[C@@H]2[C@H](NC(=O)Cc3ccccc3)C(=O)N2[C@H]1C(=O)O | 98 % of DMSO |
| Cc1nc(C)c(Cl)c(O)c1Cl | 90.5 % of DMSO |
| O=C(Nc1ccccc1)Nc1ccc(-c2ccc(C(=O)[C@@H]3CCC[C@H]3C(=O)O)cc2)cc1 | 101 % of DMSO |
| Cc1cn[nH]c1 | 106 % of DMSO and 98.7 % of DMSO |
| Cc1nc(Nc2cnn(C3CCNCC3)c2)nc2c1N(C)C(=O)c1cc3ccccc3cc1N2C | 205 % of DMSO |
| COc1cc(C)c(/C=C/C(C)=C/C=C/C(C)=C/C(=O)O)c(C)c1C | 112 % of DMSO |
| Nc1nc(Cl)nc2c1ncn2[C@H]1C[C@H](O)[C@@H](CO)O1 | 112 % of DMSO |
| CC(C)NNC(=O)c1ccncc1 | 102 % of DMSO |
| CC(C)OC(=O)C(C)(C)Oc1ccc(C(=O)c2ccc(Cl)cc2)cc1 | 112 % of DMSO and 121 % of DMSO |

Block 4 — read-out: kinase activity; action: inhibitor; concentration: 1 µM
Structure (SMILES): CC(C)S(=O)(=O)c1ccc2nccc(Nc3ccc4sc(C5CCCC5)nc4c3)c2c1.Cl
| target | remaining activity |
| --- | --- |
| MAP2K1 (Homo sapiens, UniProt Q02750) | 105% |
| FRK (Homo sapiens, UniProt P42685) | 73% |
| MYLK2 (Homo sapiens, UniProt Q9H1R3) | 112% |
| NUAK2 (Homo sapiens, UniProt Q9H093) | 114% |
| MAP4K3 (Homo sapiens, UniProt Q8IVH8) | 88% |
| AKT3 (Homo sapiens, UniProt Q9Y243) | 100% |
| PRKCE (Homo sapiens, UniProt Q02156) | 90% |
| WNK1 (Homo sapiens, UniProt Q9H4A3) | 86% |
| PRKCD (Homo sapiens, UniProt Q05655) | 91% |
| MATK (Homo sapiens, UniProt P42679) | 98% and 120% |

A few entries again (block 4):
| target | remaining activity |
| --- | --- |
| AKT3 (Homo sapiens, UniProt Q9Y243) | 100% |
| PRKCE (Homo sapiens, UniProt Q02156) | 90% |
| WNK1 (Homo sapiens, UniProt Q9H4A3) | 86% |
| PRKCD (Homo sapiens, UniProt Q05655) | 91% |
| MATK (Homo sapiens, UniProt P42679) | 98% and 120% |
